{"data": "Measurements of several laboratories", "note": "Numbered parts are unrelated; each lists some results of a single study. Substitutions count along the parent as printed."}
{"data": "Study 1", "target": "ABI1, truncated, D143A, DHFR fusion (Arabidopsis thaliana)", "technique": "DHFR PCA, deep sequencing", "sample": "yeast", "notes": "methotrexate growth selection, single substitutions", "with": "(+)-ABA 0 µM", "baseline": "wild-type fitted maximum", "reading": "higher = stronger binding", "starting sequence": "PYL1, truncated, DHFR fusion (Arabidopsis thaliana); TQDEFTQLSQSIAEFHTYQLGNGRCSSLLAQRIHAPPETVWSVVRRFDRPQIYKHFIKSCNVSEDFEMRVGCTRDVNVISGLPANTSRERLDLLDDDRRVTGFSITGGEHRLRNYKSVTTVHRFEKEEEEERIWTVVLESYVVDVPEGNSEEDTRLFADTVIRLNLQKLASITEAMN; partner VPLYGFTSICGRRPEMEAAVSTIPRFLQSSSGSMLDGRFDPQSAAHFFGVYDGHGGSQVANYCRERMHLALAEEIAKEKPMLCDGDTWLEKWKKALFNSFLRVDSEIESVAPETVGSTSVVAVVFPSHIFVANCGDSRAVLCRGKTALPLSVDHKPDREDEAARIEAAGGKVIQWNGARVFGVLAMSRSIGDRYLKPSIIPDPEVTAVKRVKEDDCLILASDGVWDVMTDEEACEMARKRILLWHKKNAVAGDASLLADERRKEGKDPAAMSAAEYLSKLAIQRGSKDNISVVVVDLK"}
{"Substitution": "A13R", "relative binding score": "34.3%"}
{"Substitution": "S150K", "relative binding score": "12.9%"}
{"Substitution": "E64G", "relative binding score": "14.3%"}
{"Substitution": "R132D", "relative binding score": "52.9%"}
{"Substitution": "E38K", "relative binding score": "-4.06%"}
{"Substitution": "R123G", "relative binding score": "72.6%"}
{"Substitution": "T154G", "relative binding score": "-3.59%"}
{"Substitution": "A84H", "relative binding score": "60.6%"}
{"Substitution": "Q31G", "relative binding score": "1.44%"}
{"Substitution": "E152T", "relative binding score": "0.927%"}
{"Substitution": "V62K", "relative binding score": "-10.1%"}
{"Substitution": "G23N", "relative binding score": "26.7%"}
{"Substitution": "I52E", "relative binding score": "16.9%"}
{"Substitution": "G107V", "relative binding score": "0.629%"}
{"data": "Study 2", "target": "RNA binding protein fox-1 homolog 2, RRM domain, GST-SBP tag (RBFOX2, Homo sapiens, UniProt O43251-10, residues 100-194)", "technique": "RNA Bind-n-Seq", "form": "RNA", "sample": "in vitro", "concentration": "365 nM", "notes": "natural RNA segment, single round, ends assumed", "baseline": "no-protein control", "reading": "higher = stronger binding", "constant ends, left off below": "GGGAGUUCUACAGUCCGACGAUC … UGGAAUUCUCGGGUGCCAA", "Target sequence (chain)": "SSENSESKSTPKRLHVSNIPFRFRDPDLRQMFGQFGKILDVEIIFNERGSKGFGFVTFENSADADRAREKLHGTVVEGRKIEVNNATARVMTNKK"}
{"Sequence": "UCUGGGCCUAGGAUGGCAUUGGCCCUCGAUGCUAGAGUUGGCUGCAUUCUCUCCUUACCUGCAGACUAUGCACAGUUCCUGGAGCAGAGGGAGAGGUGGUGUGGCUUGCC", "RBNS enrichment (R)": 0.854}
{"Sequence": "CUCUGCUCCUUCCUCCUUCAGUGCAGCCCCUCUUGGGUGGUUUAUUGGGCAGGAGGCCACCAUCAUUUCUCCUCAGAAGCAAACCUCAGUGCCUGAGACUUUCCUGCCAC", "RBNS enrichment (R)": 0.51}
{"Sequence": "CUCUGAAAAUCCCAUUCUUUGAUUUUCCUGGUAUUGUAAUUGGUUAUUGACAAUUGUCAUCAUGAAAUUACCCCUGAAUAAUCAGGUAAAUAAAGGAGUAUAUGAAUAGC", "RBNS enrichment (R)": 0.441}
{"Sequence": "UUUGUACUAAAGUUUAUAGGUCUGUGCCAGCUAGAGAGGAGUUGCUGUCAUUGCUAGUCGUGCUCUAGCAUACAACCCUGAAACCAUCCUAGGUGACAUUUUAGAAUUAA", "RBNS enrichment (R)": 0.212}
{"Sequence": "GGGUGGUGGAGGCGGUGCCGGGACUUGGCUGAGUGCAGUUUGAGCUCUAGGCUUGUCUCCAUGGGAACAGGAGGGGUGCCUUGUCAGCAAGCUCAUCCGCACAGAAGAGG", "RBNS enrichment (R)": 0.67}
{"Sequence": "CUCAAGGUGCCUCCUCCUCUCCUUAGCUGGCCCGUUGGUUUUCUGAGCAGGGGGCUGAACUGUGAACAAGUCAGACAAAUAAAGCAAGGGUCUGCACCAUCUGCAAUGUC", "RBNS enrichment (R)": 0.313}
{"Sequence": "UAGCAAGCAUGCACAUCAAAUUCACCAGAAGUACAACCCAUCGGCGCAGUCAGAGGAUGGAGUCUGAUGUCUUCCGGCUGCUGCCUUUGUGGGCAGAGCUAAUCCAAGUU", "RBNS enrichment (R)": 4.94}
{"Sequence": "ACUUAUAUACAUUAGAUAAAAGGAGCUGUAUAAUUUAGCAGGAAGGGACUAUGGGAGAAUACUUUACUGUGAGUGGAAAAUGUUAGCACAUUUGACUGGUUUGCCCUGGA", "RBNS enrichment (R)": 1.43}
{"Sequence": "GGCUCCACAUUAGGUCACCUGUGCACAGCCAUGGCUGGAAUGAUGAAGGGGAUACGCUGGAGUUGCCCUGCCAUCGCCUCCAUCAGCCAGACGAGGUCCUCACAGGAGAA", "RBNS enrichment (R)": 0.223}
{"Sequence": "UUAGUACGUUUUGAUUUUAAACAGGACCUUUGUGUGGUCAGAUCCCACAGCACUGCCUGUCCUUUUUUUUUUAACUGGAAAGACCUCCUUCAGACACUCUGCCUCUUAGU", "RBNS enrichment (R)": 0.507}
{"data": "Study 3", "target": "Sal-like protein 4, full length isoform B (SALL4, Homo sapiens, UniProt Q9UJQ4-2, residues 1-616)", "technique": "universal PBM", "form": "double-stranded DNA, one strand shown", "sample": "in vitro", "concentration": "not given", "notes": "8-mer, flanks averaged, mean of replicates", "reading": "higher = stronger binding"}
{"Sequence": "ATTTTGAA", "E-score": 0.346}
{"Sequence": "ACGATCGG", "E-score": 0.0385}
{"Sequence": "ACTCCATG", "E-score": -0.139}
{"Sequence": "CTAGACAG", "E-score": -0.108}
{"Sequence": "ACCGGTAG", "E-score": -0.325}
{"Sequence": "CTACCAAG", "E-score": -0.0732}
{"Sequence": "ACGTGCGA", "E-score": -0.168}
{"Sequence": "TCAAGTAA", "E-score": 0.274}
{"Sequence": "CGTGATGC", "E-score": -0.129}
{"Sequence": "CCCCGTGA", "E-score": -0.213}
{"Sequence": "AAGGGCCT", "E-score": -0.255}
{"Sequence": "ACATTGCG", "E-score": 0.0169}
{"Sequence": "ACTGTTCG", "E-score": 0.14}
{"Sequence": "AGCGTTTA", "E-score": -0.0474}
{"Sequence": "CAGTTAGC", "E-score": -0.182}
{"Sequence": "ATCGAAGA", "E-score": 0.239}
{"Sequence": "ATGCTATA", "E-score": 0.242}
{"Sequence": "ATCAGCAA", "E-score": -0.0395}
{"Sequence": "AAACTTAT", "E-score": 0.368}
{"Sequence": "TAATTTGA", "E-score": 0.33}
{"Sequence": "CCATTATA", "E-score": 0.297}
{"Sequence": "ATCTAACG", "E-score": 0.0741}
{"Sequence": "GGTGACAA", "E-score": 0.0076}
{"Sequence": "TGCCAGCA", "E-score": -0.0286}
{"Sequence": "AGCTCCCA", "E-score": -0.272}
{"data": "Study 4", "target": "TAR DNA-binding protein 43, full length, His tag (TARDBP, Homo sapiens, UniProt Q13148, residues 1-414)", "technique": "RNA Bind-n-Seq", "form": "RNA", "sample": "in vitro", "concentration": "20 nM", "notes": "6-mer, flanks averaged, single round", "with": "150 mM KCl", "baseline": "input library", "reading": "higher = stronger binding"}
{"Sequence": "CGUCCU", "6-mer enrichment (R)": 0.616}
{"Sequence": "AUAGAU", "6-mer enrichment (R)": 0.623}
{"Sequence": "UAGUGA", "6-mer enrichment (R)": 0.84}
{"Sequence": "GGUAGC", "6-mer enrichment (R)": 1.49}
{"Sequence": "UCGAGG", "6-mer enrichment (R)": 1.6}
{"Sequence": "CUUGGU", "6-mer enrichment (R)": 0.753}
{"Sequence": "UAAAUA", "6-mer enrichment (R)": 0.674}
{"Sequence": "UAGUCC", "6-mer enrichment (R)": 0.604}
{"Sequence": "UGCCAG", "6-mer enrichment (R)": 0.912}
{"Sequence": "GCAGGU", "6-mer enrichment (R)": 1.48}
{"Sequence": "CCUCGU", "6-mer enrichment (R)": 0.593}
{"Sequence": "CUCCCC", "6-mer enrichment (R)": 0.675}
{"Sequence": "AGACCG", "6-mer enrichment (R)": 0.871}
{"Sequence": "UUACCG", "6-mer enrichment (R)": 0.629}
{"data": "Study 5", "target": "Histone acetyltransferase KAT6A, both winged helices, GST fusion (KAT6A, Homo sapiens, UniProt Q92794, residues 1-181)", "technique": "protein binding microarray", "form": "double-stranded DNA, one strand shown", "sample": "in vitro", "concentration": "not given", "notes": "8-mer, flanks averaged, mean of 2 arrays, mostly near background", "baseline": "not given", "reading": "higher = stronger binding", "Construct (chain)": "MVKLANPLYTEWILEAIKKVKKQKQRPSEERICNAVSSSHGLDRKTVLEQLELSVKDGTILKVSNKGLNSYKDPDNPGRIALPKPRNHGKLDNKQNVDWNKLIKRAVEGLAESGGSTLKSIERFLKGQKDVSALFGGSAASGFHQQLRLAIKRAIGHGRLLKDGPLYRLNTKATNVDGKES"}
{"Sequence": "ACATCCGC", "E-score": 0.297}
{"Sequence": "GCGTGCGA", "E-score": 0.2}
{"Sequence": "GAACTATA", "E-score": -0.0248}
{"Sequence": "CCTGCGGA", "E-score": 0.0341}
{"Sequence": "ATTTGAGC", "E-score": -0.136}
{"Sequence": "GTTGGGCA", "E-score": -0.0466}
{"Sequence": "ACAGATTG", "E-score": -0.0998}
{"Sequence": "CAGCCAGC", "E-score": -0.283}
{"Sequence": "CTAAATCC", "E-score": -0.0293}
{"Sequence": "ATACTCTG", "E-score": 0.0135}
{"Sequence": "GACACGCA", "E-score": 0.223}
{"Sequence": "CTCGGACC", "E-score": 0.0704}
{"Sequence": "AGGCATTG", "E-score": -0.184}
{"Sequence": "CCGAGCAC", "E-score": 0.0277}
{"Sequence": "ATCCCTAA", "E-score": -0.138}
{"Sequence": "ACAACTTG", "E-score": -0.125}
{"Sequence": "ATTGTGCC", "E-score": -0.0842}
{"Sequence": "CGCGTTCC", "E-score": 0.338}
{"data": "Study 6", "target": "PABPC1L2, full length, GST fusion (mouse, UniProt A0ABA7IW68)", "technique": "RNAcompete", "form": "RNA", "sample": "in vitro", "concentration": "20 nM", "notes": "7-mer, probes averaged, single round", "baseline": "mean of 7-mers", "reading": "higher = stronger binding", "Residues (chain)": "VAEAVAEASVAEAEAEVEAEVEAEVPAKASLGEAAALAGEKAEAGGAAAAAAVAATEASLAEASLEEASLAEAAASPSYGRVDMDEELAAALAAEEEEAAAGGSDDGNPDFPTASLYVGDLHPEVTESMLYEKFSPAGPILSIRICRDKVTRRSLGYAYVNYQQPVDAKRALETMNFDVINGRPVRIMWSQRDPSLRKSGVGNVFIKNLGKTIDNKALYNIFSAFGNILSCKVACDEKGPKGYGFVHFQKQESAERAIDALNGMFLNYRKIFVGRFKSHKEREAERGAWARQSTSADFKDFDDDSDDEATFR"}
{"Sequence": "GUUCUCU", "7-mer Z-score": -0.369}
{"Sequence": "AAGGUAA", "7-mer Z-score": 0.276}
{"Sequence": "CUCUACC", "7-mer Z-score": -0.306}
{"Sequence": "ACCGUGU", "7-mer Z-score": -0.202}
{"Sequence": "AGACGGC", "7-mer Z-score": -0.0863}
{"Sequence": "CCGCCGU", "7-mer Z-score": -0.456}
{"Sequence": "GCCACCG", "7-mer Z-score": -0.226}
{"Sequence": "CUAUGAU", "7-mer Z-score": -0.208}
{"Sequence": "CAACUUU", "7-mer Z-score": -0.235}
{"Sequence": "UGCGGCA", "7-mer Z-score": 0.0315}
{"Sequence": "GAGAACA", "7-mer Z-score": 0.206}
{"Sequence": "UCGAACC", "7-mer Z-score": -0.296}
{"Sequence": "ACGUAGC", "7-mer Z-score": -0.204}
{"Sequence": "UCGUUUC", "7-mer Z-score": -0.541}
{"Sequence": "AUUGAGC", "7-mer Z-score": -0.186}
{"Sequence": "UACCAUC", "7-mer Z-score": -0.347}
{"note": "Excerpt of the above (study 3):"}
{"Sequence": "ACATTGCG", "E-score": 0.0169}
{"Sequence": "ATCAGCAA", "E-score": -0.0395}
{"Sequence": "CTAGACAG", "E-score": -0.108}
{"Sequence": "CCCCGTGA", "E-score": -0.213}
{"Sequence": "ATCTAACG", "E-score": 0.0741}
